# Experimental data pooled from the literature.
# Protocols differ between the studies behind these lines. “And” joins repeats or separate records; there may be more than shown.
# ABL1 E255K: Tyrosine-protein kinase ABL1 (ABL1, Homo sapiens, UniProt P00519, E255K)
# ABL1 T315I: Tyrosine-protein kinase ABL1 (ABL1, Homo sapiens, UniProt P00519, T315I)
# ABL1 F317L: Tyrosine-protein kinase ABL1 (ABL1, Homo sapiens, UniProt P00519, F317L)
Compound,target,test,setting,how to read,quantity,value
Cc1nc(Nc2ncc(C(=O)Nc3c(C)cccc3Cl)s2)cc(N2CC[C@H](O)C2)n1,ABL1 E255K,,0.001 µM,,inhibition,68%
Cc1cnn2ncc(-c3ccnc(N(C)C)n3)c2c1,"ABL1 (Homo sapiens, UniProt P00519, Q252H)",KINOMEscan,1 µM,,remaining binding,80%
[2H]c1cc(C)c(NC(=O)c2cnc(Nc3cc(N4CCCCC4)nc(C)n3)s2)c(Cl)c1,ABL1 T315I,,0.01 µM,,inhibition,< 30%
COc1cc(F)ccc1-c1ncnc(Nc2cccc(C[S@](C)(=N)=O)c2)n1,"ABL1 (Homo sapiens, UniProt P00519)",kinase activity,"10 µM, added: 10 µM ATP",,remaining activity,36%
[2H]c1cc(C)c(NC(=O)c2cnc(Nc3cc(N4CCC(O)CC4)nc(C)n3)s2)c(Cl)c1,ABL1 E255K,,0.001 µM,,inhibition,> 50%
CN(C)c1nccc(-c2cnc3ncccn23)n1,ABL1 F317L,KINOMEscan,1 µM,,remaining binding,50%
C1=C/COCc2cc(ccc2OCCN2CCCC2)Nc2nccc(n2)-c2cccc(c2)COC/1,ABL1 T315I,,0.1 µM,reference: DMSO control,remaining binding,21%
CN1CCN(c2ccc(Nc3nccc(-c4ccccc4)n3)cc2C(F)(F)F)CC1,ABL1 F317L,,10 µM,,percent of control,64%
N[C@@H]1CCN(c2nccc(-c3cnn4ncccc34)n2)C1,"ABL1 (Homo sapiens, UniProt P00519, H396P)",KINOMEscan,1 µM,,remaining binding,78% and 100%
O=C(NC1CCC1)c1ccc2nc(-c3cccc(NS(=O)(=O)NCCN4CCCCC4)c3)cn2c1,"ABL1 (Homo sapiens, UniProt P00519, Y253F)",enzyme activity,10 µM,,remaining activity,86%
